Experimental data of several laboratories.
A part holds a random share of what one study measured. Changes are numbered by the printed parent chain.

Series 1
Target: RING finger protein unkempt homolog, zinc fingers 1-6, GST-SBP tag (UNK, Homo sapiens, UniProt Q9C0B0, residues 30-357)
Technique: RNA Bind-n-Seq
Form: RNA
Matrix: in vitro
Concentration: not given
Setting: RNA with constant flanks, human and mouse sites, ends assumed
Reference: input RNA pool
Direction: higher = stronger binding
Target sequence (chain): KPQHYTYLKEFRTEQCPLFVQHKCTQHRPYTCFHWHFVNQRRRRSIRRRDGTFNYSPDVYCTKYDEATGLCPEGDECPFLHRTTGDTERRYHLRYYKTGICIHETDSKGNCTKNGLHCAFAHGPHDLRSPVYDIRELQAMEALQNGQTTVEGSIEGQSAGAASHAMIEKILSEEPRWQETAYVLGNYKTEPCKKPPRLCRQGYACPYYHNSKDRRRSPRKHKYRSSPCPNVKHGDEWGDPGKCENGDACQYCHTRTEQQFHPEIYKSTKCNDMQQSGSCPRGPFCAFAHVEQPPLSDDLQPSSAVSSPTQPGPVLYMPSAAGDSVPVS
Oligonucleotide	bound/input enrichment [ratio]
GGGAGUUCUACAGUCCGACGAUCAUUCCCUCCAAAAUCAUCAGUUUAUCGGUGGUGCCAGGGGGUUGUGGUAUCAAAGAGAAGGUUAGCCCGGGACUUCUGCAAGUAGGGCAGUCUUCAACAUCUGUGGGAGAUAAAGGAAUUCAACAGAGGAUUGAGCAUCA	0.169
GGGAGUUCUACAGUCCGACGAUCUGCCCUUCCAGUAAUAGUUAAUUUUGAAUAAUUAUGUAUUGUCUGAAAAGCAAUGAGUGCUAGUUUUUGUUUUCUUUGUUUAAAAAAAAAAACAAAAAUCCCCACAAACGUUUGUUGUUUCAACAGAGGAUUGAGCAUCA	2.81
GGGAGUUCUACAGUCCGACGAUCACCUCCCAAGUCCUUUAUGAAUGGGAGCAAGGCUUUUCCCAGUCCUUCACGCAAGAGCAAGUAGCUGAUAUUGACGGGCAGUAUGCAAUGACUAGGGCUCAGAGGGUCCGAGCUGCCAUGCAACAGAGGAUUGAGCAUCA	0.17
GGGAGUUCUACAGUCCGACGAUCCGUGGGAAAACUAGAGCUGAAACAAUGGGACCCAUGGGUUGGAUGAAGUGUCCUCUUGCUAGCACCAAUAAAAGAUUUCUAAUUAACACAAUUAAAAACACAUUGCCCUCUCAUAAAGAGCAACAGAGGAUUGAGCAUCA	21.5
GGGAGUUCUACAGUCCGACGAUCAUUGAGAAGGCCCAGAACAUGUCCAAAUAUGUGUUGAUUGACACACCUGGACAGAUUGAGGUAUUCACCUGGUCAGCUUCUGGGACAAUUAUCACUGAAGCCCUUGCAUCCUCAUUUCCACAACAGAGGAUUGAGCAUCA	0.106
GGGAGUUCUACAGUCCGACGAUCACCAACAAAGUUGCUUCCCAGAAAGGAAUGAGCGUGUAUGGGCUUGGGCGGCAAGUAUAUGACCCCAAGUACUGUGCCGCACCCACAGAACCUGUCAUUCACAACGGAAGCCAGGGCACGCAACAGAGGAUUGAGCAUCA	0.154
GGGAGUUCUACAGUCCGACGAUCCUCGAUAAUUGCUUGUGUGUCAAUGGGGAAAUCGAAGGCCUGAAUGACACCUUUAAGGAACUGGAGUUUCUUAGCAUGGCCAACGUGGAGUUGAGUUCCUUGGCCCGGCUUCCCAGCUUGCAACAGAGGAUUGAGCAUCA	0.0778
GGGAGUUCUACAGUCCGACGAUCUUUUGUAUUGUACAUAAAAUUACCUAGAAAUGCACUUUUCCUCCAAAAUGUAGGUUCGUGAAUAGACUUAGCAUGAUGAAGCUGUCUUUACAGUGAAUGCUUACCCUGUGUAGAGAAAGCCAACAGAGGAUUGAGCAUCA	1.13
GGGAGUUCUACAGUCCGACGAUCGUCACAAGUAGGUUGGUAGAAAACAACCUGAUUCUGACCCUUUCUUUUUUUUUUUCCUGUUUUAGUCUCAGUAGAUCUUUUCAAGCACUGUCCUUACAGCUCAUGAAUGUUUAGGUCUUUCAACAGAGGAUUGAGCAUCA	1.09
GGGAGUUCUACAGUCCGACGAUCCUGGCUCACCCUGAUGCGCCGAUGUCGCAGAUCUAUGGGGCGCCACACCUCCUGAGAUUAUUCGUGAGAAUUGGGGCAAUGUUGGCCUAUACGCCCCUUGAUGAGAAAAGCCUGGCAUUACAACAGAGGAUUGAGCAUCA	0.116
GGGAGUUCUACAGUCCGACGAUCGGGAUGACCUGCCAUUCAUGUACUAGCACUAUUGAAGGAAAAAUUGGGAAACUGCAAGGUGUUCAGCGAAUUAAAGUCUCCCUGGACAAUCAAGAAGCUACUAUUGUUUAUCAACCUCAUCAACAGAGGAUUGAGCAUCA	0.137

Series 2
Target: CCND2, cyclin fold, Cln2 fusion (human)
Technique: yeast growth competition, sequencing
Matrix: yeast
Setting: weak parent motif
Reference: not given
Direction: higher = stronger binding
Starting sequence: LLGL2 docking peptide (human); KSLKKSLRQSFRR; partner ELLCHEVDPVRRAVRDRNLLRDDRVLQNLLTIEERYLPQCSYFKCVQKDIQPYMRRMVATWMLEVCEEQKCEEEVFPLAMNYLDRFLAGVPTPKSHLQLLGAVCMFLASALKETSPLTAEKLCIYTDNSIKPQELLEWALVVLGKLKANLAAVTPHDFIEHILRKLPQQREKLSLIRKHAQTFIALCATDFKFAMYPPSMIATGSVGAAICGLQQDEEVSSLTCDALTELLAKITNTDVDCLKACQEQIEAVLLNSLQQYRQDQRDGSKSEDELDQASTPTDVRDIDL
Variant	normalised enrichment score
KSLKKALRQSFRR [S6A]	-0.728
KSLKKSARQSFRR [L7A]	-0.148
ASLKKSLRQSFRR [K1A]	-0.0583
KSLKKSLAQSFRR [R8A]	-0.235
KSLKKSLRQAFRR [S10A]	-1.16
KSLKKSLRASFRR [Q9A]	0.254

Series 3
Target: Ras GTPase-activating protein-binding protein 1, C-terminal RGG region (G3BP1, Homo sapiens, UniProt Q13283)
UniProt Q13283, sequence (whole entry, looked up): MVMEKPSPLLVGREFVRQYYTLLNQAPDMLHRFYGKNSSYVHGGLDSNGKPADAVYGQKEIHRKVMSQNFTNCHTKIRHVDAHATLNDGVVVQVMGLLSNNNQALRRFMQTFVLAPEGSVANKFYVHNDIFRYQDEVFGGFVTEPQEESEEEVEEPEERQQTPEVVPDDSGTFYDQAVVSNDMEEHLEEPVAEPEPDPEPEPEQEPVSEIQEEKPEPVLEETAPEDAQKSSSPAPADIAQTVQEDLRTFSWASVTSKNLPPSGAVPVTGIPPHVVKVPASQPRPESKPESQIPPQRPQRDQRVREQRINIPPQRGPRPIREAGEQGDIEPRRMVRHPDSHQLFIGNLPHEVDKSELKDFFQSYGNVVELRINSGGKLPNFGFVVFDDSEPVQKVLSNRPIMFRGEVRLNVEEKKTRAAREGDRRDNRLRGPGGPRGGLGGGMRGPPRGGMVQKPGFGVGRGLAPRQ
Technique: RNA Bind-n-Seq
Form: RNA
Matrix: in vitro
Concentration: 1 µM
Setting: whole 134-nt RNA, ends assumed
With: 150 mM KCl
Reference: input library
Direction: higher = stronger binding
Oligonucleotide	log2 enrichment
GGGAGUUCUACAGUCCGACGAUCCCUCAAGUCCUGUGCUACACAUCGUAUGUACCGAAUCGGGGCGGCGGGCGGGGAAAGUAUUAUGUUACGCCGUUCGGAUCUGCACUUCCAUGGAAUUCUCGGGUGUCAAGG	0.489
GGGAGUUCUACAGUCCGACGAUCCAAGUCCUGUGCUACACAUCGUAUGUACCGAAUCGGGAGGGUUUUUUUGGGAGGGAAAGUAUUAUGUUACGCCGUUCGGAUCUGCACUUCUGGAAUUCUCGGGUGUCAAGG	0.595
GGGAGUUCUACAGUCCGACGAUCUAACUUUAGAGUAGGAUCUGAUGGAUAUGGCAGUGGACGUGGAUUUGGGGAUGGCUAUAAUGGGUAUGGAGGAGGACCUGGAGGUGGCAAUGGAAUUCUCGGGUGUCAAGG	-1.54
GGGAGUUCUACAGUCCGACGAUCCACAGACAACACGCACCCACACAGACACAGAGGGAAGGGGUUGGGAUGGGGACAGGGUGCACAGCAGGGCGGGGUAGGACCCCAGCAAAUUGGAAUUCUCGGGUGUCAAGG	-0.461
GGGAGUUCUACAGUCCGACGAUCUCCUGUGCUACACAUCGUAUGUACCGAAUCGGGAAAAAAGGGAAAAAAGGAAAAAAGGGAAAGUAUUAUGUUACGCCGUUCGGAUCUGCAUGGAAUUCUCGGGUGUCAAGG	-1.09
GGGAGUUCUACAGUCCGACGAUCUCCUCAAGUCCUGUGCUACACAUCGUAUGUACCGAAUCGGAGGGGAGGAGGGAAAGUAUUAUGUUACGCCGUUCGGAUCUGCACUUCCAGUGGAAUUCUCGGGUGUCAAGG	-0.583
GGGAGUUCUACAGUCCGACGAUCCUCAAGUCCUGUGCUACACAUCGUAUGUACCGAAUCGGUUGGGGUUGGGUUGGGAAAGUAUUAUGUUACGCCGUUCGGAUCUGCACUUCCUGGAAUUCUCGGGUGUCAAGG	1.47
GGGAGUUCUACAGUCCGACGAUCCCUGUGCUACACAUCGUAUGUACCGAAUCGGGGAAAAAAAGGGGUUUUUUUGGGGAGGGGAAAGUAUUAUGUUACGCCGUUCGGAUCUGCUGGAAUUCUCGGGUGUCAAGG	0.767
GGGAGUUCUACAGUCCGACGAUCUGGCCCUGGUGGCAUGCGGGGAGGAAGAGGUGGCCUCAUGGAUCGUGGUGGUCCCGGUAGAAUGUUCAGAGGUGGCCGUGGUGGAGACAGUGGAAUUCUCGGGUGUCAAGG	2.12
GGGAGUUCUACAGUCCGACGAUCCCUGUGCUACACAUCGUAUGUACCGAAUCGGUUUUUUUGGGUUUUUUUGGUUUUUUUGGGAAAGUAUUAUGUUACGCCGUUCGGAUCUGCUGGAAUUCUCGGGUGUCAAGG	-1.57

Series 4
Target: ABI1, truncated, D143A, DHFR fusion (Arabidopsis thaliana)
Technique: DHFR PCA, deep sequencing
Matrix: yeast
Setting: methotrexate growth selection, single substitutions
With: (+)-ABA 0 µM
Reference: wild-type fitted maximum
Direction: higher = stronger binding
Starting sequence: PYL1, truncated, DHFR fusion (Arabidopsis thaliana); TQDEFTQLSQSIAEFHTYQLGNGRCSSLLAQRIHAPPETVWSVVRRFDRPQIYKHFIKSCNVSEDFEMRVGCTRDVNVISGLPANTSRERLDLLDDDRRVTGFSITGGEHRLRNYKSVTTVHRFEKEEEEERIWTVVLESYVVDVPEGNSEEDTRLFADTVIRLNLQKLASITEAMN; partner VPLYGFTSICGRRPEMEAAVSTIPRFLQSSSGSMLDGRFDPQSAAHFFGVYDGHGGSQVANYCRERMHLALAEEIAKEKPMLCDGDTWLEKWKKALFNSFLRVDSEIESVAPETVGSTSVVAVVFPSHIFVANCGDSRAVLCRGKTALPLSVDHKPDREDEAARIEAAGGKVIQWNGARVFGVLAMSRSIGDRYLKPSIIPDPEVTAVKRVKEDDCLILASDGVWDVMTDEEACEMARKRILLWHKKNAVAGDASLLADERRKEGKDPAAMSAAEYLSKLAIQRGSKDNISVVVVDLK
Variant	relative binding score [%]
H34R	24.7
W134L	13.4
T154K	1.47
F5T	6.41
R45E	5.47
S42M	-0.626
E152D	16.6
T120Y	-6
V118I	29.2
T39Q	10.3
S150V	6.09
K54M	-0.298
P36G	1.26
E89M	2.06
V142D	1.13

Other studies, line by line
Molecule	target	assay	test system	setting	how to read	quantity	value
PhoQ, residues 284 288 289 292 302 303 SSCLAV	PhoP, residues 12 14 15 18 19 VHSCL (Escherichia coli, UniProt P23836)	Sort-seq, refers to: YFP reporter	E. coli	PhoQ-PhoP variant library, with: 10 µM Mg2+	reference: high Mg2+ state, higher = stronger signaling	fold induction	8.31

Excerpt of the above (series 1):
Oligonucleotide	bound/input enrichment [ratio]
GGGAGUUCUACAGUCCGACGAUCGGGAUGACCUGCCAUUCAUGUACUAGCACUAUUGAAGGAAAAAUUGGGAAACUGCAAGGUGUUCAGCGAAUUAAAGUCUCCCUGGACAAUCAAGAAGCUACUAUUGUUUAUCAACCUCAUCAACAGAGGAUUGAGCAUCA	0.137
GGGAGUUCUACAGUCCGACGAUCACCUCCCAAGUCCUUUAUGAAUGGGAGCAAGGCUUUUCCCAGUCCUUCACGCAAGAGCAAGUAGCUGAUAUUGACGGGCAGUAUGCAAUGACUAGGGCUCAGAGGGUCCGAGCUGCCAUGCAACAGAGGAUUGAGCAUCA	0.17
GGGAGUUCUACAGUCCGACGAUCUUUUGUAUUGUACAUAAAAUUACCUAGAAAUGCACUUUUCCUCCAAAAUGUAGGUUCGUGAAUAGACUUAGCAUGAUGAAGCUGUCUUUACAGUGAAUGCUUACCCUGUGUAGAGAAAGCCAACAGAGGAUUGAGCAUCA	1.13
